Measurements gathered from unrelated publications.
Protocols differ between the studies behind these lines.
Target: Adenosine receptor A2a (ADORA2A, Homo sapiens, UniProt P29274)

`Nc1ncnc2[nH]c(/C=C/c3ccsc3)nc12` has an IC50 of > 411000 nM (cAMP, ELISA).
For `Nc1ncnc2c1ncn2[C@@H]1O[C@H](C(=O)NCC(F)F)[C@@H](O)[C@H]1O`, the Ki was 90 nM (ligand displacement, radioligand; cell membranes).
`N#Cc1c(N)nc(SCc2ncc[nH]2)c(C#N)c1-c1ccc(O)cc1` gave an EC50 of 6.31 nM (phosphorylation in cells, agonist, AlphaScreen).
With `COc1ccc(/C=C/c2nc3c(Nc4ccc(Cl)cc4)ncnc3[nH]2)cc1OC` the IC50 was 19500 nM (cAMP, ELISA).
For `CCNC(=O)C1OC(n2cnc3c(NCC(c4ccccc4)c4ccccc4)nc(NCCNC(=O)Nc4cc[n+](C)cc4)nc32)C(O)C1O` (stereo not drawn), the EC50 was 0.129 nM (cAMP, agonist, luciferase).
With `Nc1nc(SCCc2ccc(S(=O)(=O)O)cc2)nc2c1ncn2C1OC(CO)C(O)C1O` (stereo not drawn) the EC50 was 12.6 nM.
The Ki of `COc1cccc(-c2c(C#N)c(N)nc(SCc3ncc[nH]3)c2C#N)c1` is reported as 38 nM (ligand displacement, radioligand; cell membranes).
`Nc1ncnc2c1ncn2[C@@H]1O[C@H](C(=O)NCCCF)[C@@H](O)[C@H]1O` has a Ki of 690 nM (ligand displacement, radioligand; cell membranes).
`Nc1ncnc2[nH]c(/C=C/C3CCCCC3)nc12` has an IC50 of > 411000 nM (cAMP, ELISA).
`CCNC(=O)C1OC(n2cnc3c(NCC(c4ccccc4)c4ccccc4)nc(NCCc4ccc(CC[N+](C)(C)C)cc4)nc32)C(O)C1O` (stereo not drawn) has an EC50 of 1230 nM (cAMP, agonist, luciferase).
`COc1ccc(-c2nc(CSc3nc(N)c(C#N)c(-c4ccccc4)c3C#N)cs2)cc1` has a Ki of 175 nM (ligand displacement, radioligand; cell membranes).
`CCNC(=O)C1OC(n2cnc3c(N)nc(NCCNC(=O)Nc4cc[n+](C)cc4)nc32)C(O)C1O` (stereo not drawn) gave an EC50 of 16.2 nM (cAMP, agonist, luciferase).
`COc1ccccc1Nc1ncnc2[nH]c(/C=C/c3ccc(OC)c(OC)c3)nc12` gave an IC50 of > 248000 nM (cAMP, ELISA).
For `Nc1ncnc2c1ncn2[C@@H]1O[C@H](C(=O)NCCF)[C@@H](O)[C@H]1O`, the Ki was 140 nM (ligand displacement, radioligand; cell membranes).
The IC50 of `COc1ncc(/C=C/c2nc3c(N)ncnc3[nH]2)cn1` is reported as > 371000 nM (cAMP, ELISA).
`CCNC(=O)C1OC(n2cnc3c(NCC(c4ccccc4)c4ccccc4)nc(NCCNC(=O)Nc4ccncc4)nc32)C(O)C1O` (stereo not drawn) has an EC50 of 0.912 nM (cAMP, agonist, luciferase).
The IC50 of `COc1ccc(/C=C/c2nc3c(Cl)ncnc3[nH]2)cc1OC` is reported as 22800 nM (cAMP, ELISA).
The EC50 of `CCNC(=O)C1OC(n2cnc3c(NC(CC)CC)nc(NCCNC(=O)Nc4ccncc4)nc32)C(O)C1O` (stereo not drawn) is reported as 0.145 nM (cAMP, agonist, luciferase).

Excerpt of the above:
The Ki of `COc1cccc(-c2c(C#N)c(N)nc(SCc3ncc[nH]3)c2C#N)c1` is reported as 38 nM (ligand displacement, radioligand; cell membranes).
